Measured values gathered from unrelated publications.
Each numbered part is a random draw from the data of one study; scales do not carry over between parts.
UniProt P10721, sequence (whole entry, unmodified, looked up): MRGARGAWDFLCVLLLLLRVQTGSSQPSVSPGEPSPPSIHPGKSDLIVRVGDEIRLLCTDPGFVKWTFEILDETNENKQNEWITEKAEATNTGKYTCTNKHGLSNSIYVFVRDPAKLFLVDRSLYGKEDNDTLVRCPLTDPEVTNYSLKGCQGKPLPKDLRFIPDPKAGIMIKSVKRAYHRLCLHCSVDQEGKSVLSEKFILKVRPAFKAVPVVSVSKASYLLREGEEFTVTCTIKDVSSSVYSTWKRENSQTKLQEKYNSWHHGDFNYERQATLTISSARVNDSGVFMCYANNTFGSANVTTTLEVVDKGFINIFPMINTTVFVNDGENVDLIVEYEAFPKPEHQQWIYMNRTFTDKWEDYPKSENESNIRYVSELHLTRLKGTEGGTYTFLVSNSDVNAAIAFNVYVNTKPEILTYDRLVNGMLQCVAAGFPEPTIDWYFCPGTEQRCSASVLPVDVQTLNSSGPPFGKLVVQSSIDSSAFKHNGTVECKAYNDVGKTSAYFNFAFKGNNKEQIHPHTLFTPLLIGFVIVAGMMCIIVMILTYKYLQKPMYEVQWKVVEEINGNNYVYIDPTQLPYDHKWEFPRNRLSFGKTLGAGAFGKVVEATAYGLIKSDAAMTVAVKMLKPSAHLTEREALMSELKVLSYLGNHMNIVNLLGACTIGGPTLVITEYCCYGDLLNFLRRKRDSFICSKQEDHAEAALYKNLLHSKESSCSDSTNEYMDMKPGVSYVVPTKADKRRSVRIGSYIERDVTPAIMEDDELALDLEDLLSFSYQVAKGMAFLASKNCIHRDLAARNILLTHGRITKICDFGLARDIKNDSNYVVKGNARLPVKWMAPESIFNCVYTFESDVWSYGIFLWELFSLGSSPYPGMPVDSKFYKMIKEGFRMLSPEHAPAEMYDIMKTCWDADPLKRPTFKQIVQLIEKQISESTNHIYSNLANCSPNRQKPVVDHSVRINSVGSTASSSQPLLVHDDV
UniProt Q12851, sequence (whole entry, looked up): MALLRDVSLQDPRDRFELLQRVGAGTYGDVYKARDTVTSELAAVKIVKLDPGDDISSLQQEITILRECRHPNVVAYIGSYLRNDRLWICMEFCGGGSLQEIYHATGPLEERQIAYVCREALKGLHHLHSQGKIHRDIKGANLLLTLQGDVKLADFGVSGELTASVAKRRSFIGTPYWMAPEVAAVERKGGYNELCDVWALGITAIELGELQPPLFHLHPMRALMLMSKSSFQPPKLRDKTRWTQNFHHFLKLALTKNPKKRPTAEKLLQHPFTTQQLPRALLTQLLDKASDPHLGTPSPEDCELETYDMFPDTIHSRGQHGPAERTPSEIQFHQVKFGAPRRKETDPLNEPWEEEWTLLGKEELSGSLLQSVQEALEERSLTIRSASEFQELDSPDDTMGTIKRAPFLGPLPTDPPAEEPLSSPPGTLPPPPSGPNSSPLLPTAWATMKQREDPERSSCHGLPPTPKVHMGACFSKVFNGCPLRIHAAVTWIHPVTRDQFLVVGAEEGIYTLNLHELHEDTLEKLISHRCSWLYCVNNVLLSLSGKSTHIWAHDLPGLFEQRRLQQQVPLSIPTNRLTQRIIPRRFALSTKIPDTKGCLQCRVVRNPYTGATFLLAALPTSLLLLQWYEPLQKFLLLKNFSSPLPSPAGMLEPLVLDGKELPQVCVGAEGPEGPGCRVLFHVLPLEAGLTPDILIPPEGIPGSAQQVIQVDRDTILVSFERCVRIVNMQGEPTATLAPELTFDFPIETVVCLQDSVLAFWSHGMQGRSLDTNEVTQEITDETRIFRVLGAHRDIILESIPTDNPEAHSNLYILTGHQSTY
UniProt Q9HBH9, sequence (whole entry, looked up): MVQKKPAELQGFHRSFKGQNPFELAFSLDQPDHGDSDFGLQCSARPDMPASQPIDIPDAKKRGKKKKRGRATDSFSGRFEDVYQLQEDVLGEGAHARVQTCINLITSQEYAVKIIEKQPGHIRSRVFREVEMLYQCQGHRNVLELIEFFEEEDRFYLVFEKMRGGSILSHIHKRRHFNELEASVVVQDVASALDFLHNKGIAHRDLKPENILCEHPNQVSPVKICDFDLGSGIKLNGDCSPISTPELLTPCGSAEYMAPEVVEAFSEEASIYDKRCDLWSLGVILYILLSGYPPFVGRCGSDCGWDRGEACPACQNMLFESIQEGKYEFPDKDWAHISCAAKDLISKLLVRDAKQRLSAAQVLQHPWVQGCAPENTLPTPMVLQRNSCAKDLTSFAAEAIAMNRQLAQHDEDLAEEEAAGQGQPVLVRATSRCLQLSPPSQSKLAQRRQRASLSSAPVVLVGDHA
UniProt Q06187, sequence (whole entry, looked up): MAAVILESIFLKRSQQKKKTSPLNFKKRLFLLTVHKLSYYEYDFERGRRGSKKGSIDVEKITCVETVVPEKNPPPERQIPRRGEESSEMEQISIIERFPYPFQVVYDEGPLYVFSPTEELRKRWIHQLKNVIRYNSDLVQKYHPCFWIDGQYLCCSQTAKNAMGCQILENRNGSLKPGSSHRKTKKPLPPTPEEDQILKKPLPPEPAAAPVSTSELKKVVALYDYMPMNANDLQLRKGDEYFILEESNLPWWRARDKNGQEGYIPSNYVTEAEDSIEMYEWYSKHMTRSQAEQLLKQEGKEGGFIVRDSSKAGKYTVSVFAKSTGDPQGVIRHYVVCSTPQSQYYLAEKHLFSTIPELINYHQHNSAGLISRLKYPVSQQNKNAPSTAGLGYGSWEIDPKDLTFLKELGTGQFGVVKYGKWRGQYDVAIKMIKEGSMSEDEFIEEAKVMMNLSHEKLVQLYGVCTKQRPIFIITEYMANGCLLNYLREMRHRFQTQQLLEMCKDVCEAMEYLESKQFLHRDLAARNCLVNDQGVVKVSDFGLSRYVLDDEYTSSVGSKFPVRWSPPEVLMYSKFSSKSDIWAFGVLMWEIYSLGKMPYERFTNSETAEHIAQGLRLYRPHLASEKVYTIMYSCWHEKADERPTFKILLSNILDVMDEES
UniProt Q8TDC3, sequence (whole entry, looked up): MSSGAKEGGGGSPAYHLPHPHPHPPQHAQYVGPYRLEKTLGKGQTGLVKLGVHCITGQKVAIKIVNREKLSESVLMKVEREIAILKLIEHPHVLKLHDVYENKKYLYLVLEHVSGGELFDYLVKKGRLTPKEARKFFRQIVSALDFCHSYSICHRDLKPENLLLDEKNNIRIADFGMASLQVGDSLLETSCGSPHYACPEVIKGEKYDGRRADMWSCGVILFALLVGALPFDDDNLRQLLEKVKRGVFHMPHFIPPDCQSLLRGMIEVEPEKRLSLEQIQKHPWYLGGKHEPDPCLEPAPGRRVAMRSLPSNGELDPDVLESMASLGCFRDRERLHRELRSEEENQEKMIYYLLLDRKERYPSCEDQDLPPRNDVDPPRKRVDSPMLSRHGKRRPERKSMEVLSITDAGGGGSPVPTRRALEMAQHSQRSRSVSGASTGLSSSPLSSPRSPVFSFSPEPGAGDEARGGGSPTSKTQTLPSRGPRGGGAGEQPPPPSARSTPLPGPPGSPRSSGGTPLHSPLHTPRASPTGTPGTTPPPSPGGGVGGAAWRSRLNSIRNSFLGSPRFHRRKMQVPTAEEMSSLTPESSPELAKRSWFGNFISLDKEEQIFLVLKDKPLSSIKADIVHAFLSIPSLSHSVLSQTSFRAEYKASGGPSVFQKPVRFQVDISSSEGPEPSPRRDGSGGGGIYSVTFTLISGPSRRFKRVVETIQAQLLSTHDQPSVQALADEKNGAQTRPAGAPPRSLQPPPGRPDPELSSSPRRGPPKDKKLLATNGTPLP
UniProt Q05655, sequence (whole entry, looked up): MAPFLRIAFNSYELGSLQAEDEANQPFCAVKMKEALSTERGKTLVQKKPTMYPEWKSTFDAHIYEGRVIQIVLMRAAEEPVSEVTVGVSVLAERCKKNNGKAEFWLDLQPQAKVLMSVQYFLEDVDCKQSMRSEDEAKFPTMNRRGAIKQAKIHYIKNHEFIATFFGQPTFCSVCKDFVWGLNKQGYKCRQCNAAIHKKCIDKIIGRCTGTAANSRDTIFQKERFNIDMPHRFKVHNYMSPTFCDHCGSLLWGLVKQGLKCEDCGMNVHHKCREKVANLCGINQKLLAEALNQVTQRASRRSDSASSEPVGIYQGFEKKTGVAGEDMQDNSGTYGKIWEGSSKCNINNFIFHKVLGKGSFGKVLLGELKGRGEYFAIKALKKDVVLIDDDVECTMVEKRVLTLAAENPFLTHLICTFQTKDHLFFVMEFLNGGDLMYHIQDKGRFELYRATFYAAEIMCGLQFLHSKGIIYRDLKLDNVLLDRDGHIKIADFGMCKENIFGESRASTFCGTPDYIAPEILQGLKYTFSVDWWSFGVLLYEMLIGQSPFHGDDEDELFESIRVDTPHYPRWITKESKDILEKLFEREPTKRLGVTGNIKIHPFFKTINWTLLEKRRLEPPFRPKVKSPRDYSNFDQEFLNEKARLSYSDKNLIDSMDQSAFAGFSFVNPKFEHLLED

Series 1 — action: agonist
Target: Beta-1 adrenergic receptor (ADRB1, Homo sapiens, UniProt P08588)
UniProt P08588, sequence (whole entry, looked up): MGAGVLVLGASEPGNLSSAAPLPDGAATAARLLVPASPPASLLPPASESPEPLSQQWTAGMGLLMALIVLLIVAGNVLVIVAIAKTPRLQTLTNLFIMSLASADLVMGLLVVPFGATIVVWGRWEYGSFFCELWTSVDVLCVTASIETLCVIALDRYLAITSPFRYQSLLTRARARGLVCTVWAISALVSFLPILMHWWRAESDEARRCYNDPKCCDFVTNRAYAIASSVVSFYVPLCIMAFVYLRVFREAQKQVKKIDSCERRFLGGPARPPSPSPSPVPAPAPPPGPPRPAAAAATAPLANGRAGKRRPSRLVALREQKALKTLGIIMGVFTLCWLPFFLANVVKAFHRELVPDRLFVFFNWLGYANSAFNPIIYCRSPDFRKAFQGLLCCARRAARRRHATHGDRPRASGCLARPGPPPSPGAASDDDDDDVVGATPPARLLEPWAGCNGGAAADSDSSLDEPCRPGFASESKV
SMILES | EC50 [µM]
O=C(Nc1ccccc1)c1cc2c(nc1O)CC(c1ccco1)CC2=O (stereo not shown) | ≥ 100
CCN(Cc1cccc(S(=O)(=O)O)c1)c1cccc(C(=C2C=CC(=[N+](CC)Cc3cccc(S(=O)(=O)O)c3)C=C2)c2ccc(O)cc2S(=O)(=O)[O-])c1 | 28.2
C[S+](=O)([O-])c1cccc(Nc2n[nH]c(C(O)c3ccccc3)n2)c1 (stereo not shown) | ≥ 100
OC(COc1ccc(CN2CCC(F)CC2)cc1)CN1CCCCC1 (stereo not shown) | ≥ 100
COc1ccccc1N1CCC(N2CCN(CCCc3ccccc3)C(CCO)C2)CC1 (stereo not shown) | ≥ 100
O=c1c2nc(-c3cccc(C(F)(F)F)c3)ccc2ncn1Cc1ccccn1 | ≥ 100
O=c1oc2ccc(Cl)cc2cc1-c1nc2c(s1)CCc1ccccc1-2 | 1.58
C[C@@H](c1ccc2nccn2c1)n1nnc2ncc(-c3cnn(C)c3)nc21 | ≥ 100
CCCCNCc1ccc(OCC(O)CN2CCSCC2)c(OC)c1 (stereo not shown) | ≥ 100
CN1CCC(Cn2ccc3c(N4CCOCC4)nc(-c4cccc5[nH]ccc45)cc32)CC1 | ≥ 100

Series 2 — host: mouse; sample: microsomes or S9; tested at: 2 µM; time: 0.5 h
Compound | remaining compound [%]
O=C(COc1ncccn1)NCCNc1cc(-n2cccn2)ncn1 | 18.9
COc1ccc(NC(=O)c2cc3cc(C)ccc3n2C)c(OC)c1 | 22.3
O=C(CN1CCOCC1)N1CCC(c2nc(CCOCC3CCOCC3)no2)C1 (stereo not shown) | > 100
CCCN(CCC)C(=O)c1cccc(C(=O)NN(Cc2ccc(Br)cc2)C(=O)CN[C@H](C(=O)NCc2cccc(OC)c2)C(C)C)c1 | 0
N#Cc1ccc2nc(N3CCc4c(ncn4-c4ccccc4)C3)ccc2c1 | 4.83
COCCCNC1=NCCNC12CCN(S(=O)(=O)c1ccc(F)cc1)CC2 | 51.8
CC(=O)c1[nH]c(C)c(C(=O)N[C@H]2C[C@@H](c3nnc(CO)n3C)C2)c1C | 86.3
COc1ccc(-n2ccc3cc(NC(=O)N4CCOCC4)ccc32)cc1Cl | 83.9
O=C1c2ccccc2C2CC(c3ccc(-c4ccccc4)cc3)=NN12 (stereo not shown) | 39.8
CC(C)COc1cc(=O)n2c(c1C(=O)NC1CCCCC1)CCCCC2 | 4.6
O=C1C=C(O)CC(c2ccc(Cl)c(Cl)c2)C1 (stereo not shown) | 0
CCOC(=O)c1[nH]c(C)c(C(=O)CN(CC(C)C)C(=O)CC)c1C | 0.0742
CCCC(C)N(C)S(=O)(=O)c1ccc(NS(=O)(=O)CC)c(F)c1 (stereo not shown) | 8.08
CCc1cccc(C)c1/N=C1/N=C(N2CCOCC2)N(c2ccc(C)cc2)C12CCCCC2 | 73.7

Series 3 — read-out: enzyme activity; action: inhibitor; tested at: 0.5 µM; reference: control
Structure (SMILES): Nc1nccc(-c2c(-c3ccc(F)cc3)ncn2C2CCNCC2)n1
target | remaining activity
PRKG1 (Homo sapiens, UniProt Q13976) | 97.7%
IRAK4 (Homo sapiens, UniProt Q9NWZ3) | 123%
CSNK1A1 (Homo sapiens, UniProt P48729) | 2.82%
CSNK2A1 (Homo sapiens, UniProt P68400) | 94.7%
Cyclin-dependent kinase 9, with cyclin T1 (CDK9, Homo sapiens, UniProt P50750) | 87.1%
MAP2K6 (Homo sapiens, UniProt P52564) | 106%
PLK2 (Homo sapiens, UniProt Q9NYY3) | 93%
MKNK2 (Homo sapiens, UniProt Q9HBH9) | 92.1%
PRKCD (Homo sapiens, UniProt Q05655) | 99.8%
STK38 (Homo sapiens, UniProt Q15208) | 99.8%
LRRK2 (Homo sapiens, UniProt Q5S007) | 99.9%
WNK2 (Homo sapiens, UniProt Q9Y3S1) | 93.1%
LYN (Homo sapiens, UniProt P07948) | 87.5%
CHEK1 (Homo sapiens, UniProt O14757) | 99.8%
NEK4 (Homo sapiens, UniProt P51957) | 99.5%
EPHA5 (Homo sapiens, UniProt P54756) | 97.8%
KIT (Homo sapiens, UniProt P10721) | 98.4%
MAP4K2 (Homo sapiens, UniProt Q12851) | 102%
MAP3K10 (Homo sapiens, UniProt Q02779) | 99.8%
BTK (Homo sapiens, UniProt Q06187) | 100%
AKT3 (Homo sapiens, UniProt Q9Y243) | 92.6%

Series 4 — Structure (SMILES): FC(F)(F)c1ccc2c(c1)nc(-c1cccnc1)n2C1CC1; read-out: cell-free assay; method: competition with immobilised ligand; tested at: 1 µM
target | remaining binding [%]
PIK3C2B (Homo sapiens, UniProt O00750) | 100
TNK1 (Homo sapiens, UniProt Q13470) | 100
Tyrosine-protein kinase ABL1, phosphorylated (ABL1, Homo sapiens, UniProt P00519, M351T) | 100
HIPK2 (Homo sapiens, UniProt Q9H2X6) | 100
PIK3CA (Homo sapiens, UniProt P42336, H1047Y) | 78
BRSK1 (Homo sapiens, UniProt Q8TDC3) | 100
FGFR4 (Homo sapiens, UniProt P22455) | 100
KIT (Homo sapiens, UniProt P10721, D816V) | 100
SNRK (Homo sapiens, UniProt Q9NRH2) | 82
KIT (Homo sapiens, UniProt P10721, T670I/V559D) | 100
CIT (Homo sapiens, UniProt O14578) | 100
YES1 (Homo sapiens, UniProt P07947) | 100
KIT (Homo sapiens, UniProt P10721, A829P) | 100
Ribosomal protein S6 kinase alpha-3, N-terminal kinase domain (RPS6KA3, Homo sapiens, UniProt P51812) | 89
SGK3 (Homo sapiens, UniProt Q96BR1) | 100
TNIK (Homo sapiens, UniProt Q9UKE5) | 100

Excerpt of the above (series 1):
SMILES | EC50 [µM]
O=C(Nc1ccccc1)c1cc2c(nc1O)CC(c1ccco1)CC2=O (stereo not shown) | ≥ 100
O=c1oc2ccc(Cl)cc2cc1-c1nc2c(s1)CCc1ccccc1-2 | 1.58
CCCCNCc1ccc(OCC(O)CN2CCSCC2)c(OC)c1 (stereo not shown) | ≥ 100
O=c1c2nc(-c3cccc(C(F)(F)F)c3)ccc2ncn1Cc1ccccn1 | ≥ 100
CCN(Cc1cccc(S(=O)(=O)O)c1)c1cccc(C(=C2C=CC(=[N+](CC)Cc3cccc(S(=O)(=O)O)c3)C=C2)c2ccc(O)cc2S(=O)(=O)[O-])c1 | 28.2
C[S+](=O)([O-])c1cccc(Nc2n[nH]c(C(O)c3ccccc3)n2)c1 (stereo not shown) | ≥ 100
CN1CCC(Cn2ccc3c(N4CCOCC4)nc(-c4cccc5[nH]ccc45)cc32)CC1 | ≥ 100
